Experimental data pooled from the literature.
Compare with care: the assays were run in different laboratories. “And” joins repeats or separate records; there may be more than shown. ± gives the spread as reported.

Structure (SMILES)	cell line	test	system	setting	how to read	endpoint	result
CC(C)CC(O)(CC(C)C)c1cn(C(=O)N2CCCC2)nn1	mouse T-cells	SILAC proteomics, measured: SERF2		1 nM, 6 h, unit not given	baseline: DMSO	protein level	1.05
CCOC(=O)C1(Cc2ccccc2)Oc2cc(F)ccc2N(Cc2ccccc2)C1=O (stereo not drawn)	HEK293T	cytotoxicity, CCK-8		25 µM, 72 h		inhibition	0.21 ± 0.22%
CC(C)Cc1ccc(C(C)C(=O)[Se]CC(=O)Nc2cccc(C(F)(F)F)c2)cc1 (stereo not drawn)	NCI60 NSCLC subpanel	NCI60 five-dose screen				CC50	7.37 µM
Cc1cc(Nc2nc(C[C@@]3(C(=O)O)CCN(Cc4cccc(Cl)c4F)[C@H](C)C3)cc(C)c2F)[nH]n1	HCC1806	cell growth or viability, ATP luminescence		5 days		IC50	0.0862 µM
O=C(C[Se]C(=O)c1ccccc1)Nc1cccc(C(F)(F)F)c1	NCI60 renal subpanel	cytotoxicity, inhibitor		five-dose		CC50	13 µM
CC(C)C[C@H](NC(=O)[C@H](CC(=O)O)NC(=O)CNC(=O)[C@@H](N)CCCNC(=N)N)C(=O)N[C@@H](C)C(=O)N[C@H](C(=O)N[C@@H](CC(C)C)C(=O)N[C@@H](CCCNC(=N)N)C(=O)N[C@@H](CCC(N)=O)C(=O)N[C@@H](CC(C)C)C(=O)N[C@@H](C)C(=O)N[C@@H](CCC(N)=O)C(=O)N[C@@H](CCC(=O)O)C(=O)N[C@@H](CC(=O)O)C(=O)NCC(=O)N[C@H](C(=O)N[C@H](C(=O)NCC(=O)N[C@H](C(=O)N[C@@H](CCCNC(=N)N)C(=O)NCCOCCOCCOCCOCCOCCOCCOCCOCCOCCOCCOCCOCCC(=O)N[C@@H](CS)C(N)=O)C(C)C)C(C)C)C(C)C)[C@@H](C)O	H661 lung large cell carcinoma	cell binding, phage binding, measured: output/input phage		10 min, 37 °C	baseline: control phage	selectivity ratio	5.9 ± 1.9
COc1ccccc1-c1ccncc1C(=O)Nc1nnc(OCc2ccc(Cl)cc2)s1	HCT116 BRCA2-/-			0.06 µM, average of 3 runs	baseline: untreated	colony survival	79.7%
Cc1cc(Oc2nc(N3CC[C@@H](c4ccncc4)C3)ncc2F)[nH]n1	RD	cell proliferation	muscle cancer			IC50	77.6 µM
CC(C)(C)C(=O)OCOP(=O)(OCOC(=O)C(C)(C)C)C1CCCN(O)C1=O (stereo not drawn)	UACC-62					log TGI	-5.68 log M
[Cl-].[Cl-].[Ru+2].c1ccc(-c2ccccn2)nc1.c1ccc(-c2ccccn2)nc1.c1ccc2cc3nc4c5cccnc5c5ncccc5c4nc3cc2c1	SK-MEL-28	cell viability		1% O2, together with: blue light 453 nm, 100 J/cm2		EC50	174 ± 8 µM
Cc1c(Cl)cccc1Nc1ccccc1C(=O)[Se]CC(=O)Nc1cccc(C(F)(F)F)c1	NCI60 renal subpanel	cytotoxicity, inhibitor		five-dose		CC50	6.44 µM
CC(C)[C@H](NC(=O)[C@H](CCCNC(=N)N)NC(=O)[C@@H]1CCCN1C(=O)[C@@H](NC(=O)[C@H](C)NC(=O)[C@H](Cc1ccc(O)cc1)NC(=O)[C@H](CCC(N)=O)NC(=O)[C@H](CCCCN)NC(=O)[C@H](CCCNC(=N)N)NC(=O)[C@@H]1CCCN1C(=O)[C@H](CCC(=O)O)NC(=O)[C@@H](NC(=O)[C@H](C)N)[C@@H](C)O)[C@@H](C)O)C(=O)N[C@@H](Cc1ccccc1)C(=O)N[C@@H](Cc1c[nH]c2ccccc12)C(=O)N[C@H](C(=O)N[C@@H](CC(=O)O)C(=O)N[C@@H](C)C(=O)N1CCC[C@H]1C(=O)NCC(=O)NCCOCCOCCOCCOCCOCCOCCOCCOCCOCCOCCOCCOCCC(=O)N[C@@H](CS)C(N)=O)[C@@H](C)O	H2347 lung adenocarcinoma	cell binding, phage binding, measured: output/input phage		10 min, 37 °C	baseline: control phage	selectivity ratio	2 ± 0.87
O=C(O)c1ccc(-c2nc(-c3ccccc3Cl)c3sccn23)cc1	human CD34+ hematopoietic stem cells	megakaryocyte differentiation, flow cytometry, measured: CD41a		10 µM, day 7, together with: TPO	baseline: control	fold change	1.09 fold and 1.12 fold and 1.06 fold and 1.1 fold and 1.04 fold
Cc1cccc(-c2cccc(C)n2)n1.Cc1cccc(-c2cccc(C)n2)n1.F[P-](F)(F)(F)(F)F.F[P-](F)(F)(F)(F)F.[Ru+2].c1ccc2c(-c3nc4c5cccnc5c5ncccc5c4[nH]3)cccc2c1	SK-MEL-28	cell viability		1% O2, together with: green light 523 nm, 100 J/cm2		EC50	47.6 ± 2.2 µM
CSCC[C@H](NC(=O)[C@@H](NC(=O)[C@H](CCC(N)=O)NC(=O)[C@H](CO)NC(=O)[C@@H](N)C(C)C)[C@@H](C)O)C(=O)N[C@@H](CCCNC(=N)N)C(=O)N[C@@H](CCC(N)=O)C(=O)N[C@H](C(=O)N[C@@H](C)C(=O)N[C@H](C(=O)N1CCC[C@H]1C(=O)N[C@@H](CC(C)C)C(=O)N[C@@H](CC(C)C)C(=O)N[C@@H](Cc1c[nH]c2ccccc12)C(=O)N[C@@H](Cc1ccccc1)C(=O)N[C@@H](Cc1c[nH]c2ccccc12)C(=O)N[C@H](C(=O)NCC(=O)N[C@@H](CO)C(=O)N[C@@H](CC(C)C)C(=O)NCCOCCOCCOCCOCCOCCOCCOCCOCCOCCOCCOCCOCCC(=O)N[C@@H](CS)C(N)=O)[C@@H](C)O)C(C)C)[C@@H](C)O	MDA-MB-468 breast cancer	cell binding, phage binding, measured: output/input phage		10 min, 37 °C	baseline: control phage	selectivity ratio	1.5 ± 0.24
N[C@H](C(=O)N1CCCC1)C1CCN(c2nccc3c(-c4ncc(Cl)cc4Cl)cccc23)CC1	human neutrophils	protein citrullination, inhibitor, flow cytometry, measured: citrullinated proteins		1 nM, together with: ionomycin		inhibition	9.22% and 6.89% and 2.99% and 22.3%
CNC(=S)NCCCC[C@H](NC(=O)CCc1ccccc1)C(=O)N[C@@H](CCCNC(=N)N)C(=O)N[C@@H](CC1CCCCC1)C(=O)N[C@H](CCCCN)C(=O)N[C@@H](CC1CCCCC1)C(=O)N[C@H](CCCNC(=N)N)C(=O)N[C@@H](CC1CCCCC1)C(N)=O	Jurkat	cell growth or viability, MTT		72 h		EC50	12.7 µM
NC(=S)N/N=C/c1ccc(OCc2cccc(F)c2)cc1	IMR-32			500 µg/mL, 24 h	higher = more activity	catalase activity (OD450)	0.301 a.u.
O=C(C[Se]C(=O)c1cccs1)Nc1cccc(C(F)(F)F)c1	NCI60 leukemia subpanel	cell growth		10 µM, 48 h, one-dose		mean growth percent	-94.8%
CC(=O)NCSC[C@H](NC(=O)[C@@H]1CCCN1C(=O)[C@H](C)NC(=O)[C@@H](NC(=O)CNC(=O)[C@@H](NC(=O)[C@H](Cc1c[nH]c2ccccc12)NC(=O)[C@H](C)NC(=O)CNC(=O)[C@H](CO)NC(=O)[C@H](C)NC(=O)[C@@H]1CCCN1C(=O)[C@H](Cc1c[nH]c2ccccc12)NC(=O)[C@H](C)NC(=O)[C@H](C)NC(=O)[C@@H](N)Cc1ccc(O)cc1)[C@@H](C)O)[C@@H](C)O)C(=O)N[C@@H](CO)C(=O)N[C@@H](C)C(=O)NCC(=O)N[C@H](C(=O)NCCOCCOCCOCCOCCOCCOCCOCCOCCOCCOCCOCCOCCC(=O)N[C@@H](CS)C(N)=O)[C@@H](C)O	H2347 lung adenocarcinoma	cell binding, phage binding, measured: output/input phage		10 min, 37 °C	baseline: control phage	selectivity ratio	0.33 ± 0.12
O=C(C[Se]C(=O)c1ccc2ccccc2n1)Nc1cccc(C(F)(F)F)c1	NCI60 NSCLC subpanel	NCI60 five-dose screen				CC50	6.42 µM
C#CCN1C(=O)C(CC#C)(C(=O)OCC)Oc2ccccc21 (stereo not drawn)	HEK293T	cytotoxicity, CCK-8		100 µM, 72 h		inhibition	1 ± 0.28%
O=C1C(Cl)=C(Cl)C(=O)c2ccccc21	MOLT-3	XTT			baseline: IC50 MRC-5 over IC50 MOLT-3	selectivity index	31.8
O=C(C[Se]C(=O)c1ccco1)Nc1cccc(C(F)(F)F)c1	NCI60 renal subpanel	cell growth, inhibitor		five-dose		GI50	3.4 µM
